Experimental data gathered from unrelated publications.
Every numbered part comes from another study and shows a few of its results, in no order. “And” joins repeats or separate records; there may be more than shown.
Chain of UniProt Q06187 (whole entry, looked up): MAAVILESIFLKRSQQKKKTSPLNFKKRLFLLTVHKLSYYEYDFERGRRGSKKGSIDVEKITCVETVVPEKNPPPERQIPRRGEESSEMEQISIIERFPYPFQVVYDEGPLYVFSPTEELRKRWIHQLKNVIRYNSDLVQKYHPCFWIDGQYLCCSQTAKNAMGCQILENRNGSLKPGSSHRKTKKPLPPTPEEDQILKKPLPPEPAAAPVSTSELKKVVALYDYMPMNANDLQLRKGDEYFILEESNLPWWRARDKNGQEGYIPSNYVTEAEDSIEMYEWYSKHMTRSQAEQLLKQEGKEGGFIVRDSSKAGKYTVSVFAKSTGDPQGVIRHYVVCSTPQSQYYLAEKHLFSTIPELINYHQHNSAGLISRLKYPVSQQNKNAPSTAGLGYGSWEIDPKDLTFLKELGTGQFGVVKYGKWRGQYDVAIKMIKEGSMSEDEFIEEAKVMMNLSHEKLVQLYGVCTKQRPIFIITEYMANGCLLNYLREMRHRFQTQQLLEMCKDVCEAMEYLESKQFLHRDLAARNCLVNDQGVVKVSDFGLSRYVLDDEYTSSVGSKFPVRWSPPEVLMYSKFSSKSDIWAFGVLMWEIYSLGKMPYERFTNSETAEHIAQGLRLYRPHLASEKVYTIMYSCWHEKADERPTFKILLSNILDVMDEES
Chain of UniProt Q12851 (whole entry, looked up): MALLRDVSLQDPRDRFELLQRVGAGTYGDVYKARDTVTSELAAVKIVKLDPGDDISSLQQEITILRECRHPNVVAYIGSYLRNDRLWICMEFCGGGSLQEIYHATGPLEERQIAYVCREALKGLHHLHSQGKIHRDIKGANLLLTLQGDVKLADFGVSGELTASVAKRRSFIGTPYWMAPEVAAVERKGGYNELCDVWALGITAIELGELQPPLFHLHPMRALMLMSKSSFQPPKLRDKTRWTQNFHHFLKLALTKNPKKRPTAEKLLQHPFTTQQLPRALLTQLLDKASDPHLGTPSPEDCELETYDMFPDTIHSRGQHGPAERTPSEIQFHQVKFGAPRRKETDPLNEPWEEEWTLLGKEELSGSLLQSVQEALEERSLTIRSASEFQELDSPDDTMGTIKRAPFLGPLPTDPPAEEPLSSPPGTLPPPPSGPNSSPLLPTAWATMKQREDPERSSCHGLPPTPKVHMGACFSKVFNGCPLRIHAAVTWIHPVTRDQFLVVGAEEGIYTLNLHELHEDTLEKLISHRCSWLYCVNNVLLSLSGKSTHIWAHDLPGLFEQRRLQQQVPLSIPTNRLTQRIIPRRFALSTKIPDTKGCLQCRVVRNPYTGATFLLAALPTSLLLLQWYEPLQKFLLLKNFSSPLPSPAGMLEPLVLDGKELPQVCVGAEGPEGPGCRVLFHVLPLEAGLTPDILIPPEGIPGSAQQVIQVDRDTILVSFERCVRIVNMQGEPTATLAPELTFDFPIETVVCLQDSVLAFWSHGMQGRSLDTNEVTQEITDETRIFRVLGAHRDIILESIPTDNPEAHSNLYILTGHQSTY
Chain of UniProt Q02779 (whole entry, looked up): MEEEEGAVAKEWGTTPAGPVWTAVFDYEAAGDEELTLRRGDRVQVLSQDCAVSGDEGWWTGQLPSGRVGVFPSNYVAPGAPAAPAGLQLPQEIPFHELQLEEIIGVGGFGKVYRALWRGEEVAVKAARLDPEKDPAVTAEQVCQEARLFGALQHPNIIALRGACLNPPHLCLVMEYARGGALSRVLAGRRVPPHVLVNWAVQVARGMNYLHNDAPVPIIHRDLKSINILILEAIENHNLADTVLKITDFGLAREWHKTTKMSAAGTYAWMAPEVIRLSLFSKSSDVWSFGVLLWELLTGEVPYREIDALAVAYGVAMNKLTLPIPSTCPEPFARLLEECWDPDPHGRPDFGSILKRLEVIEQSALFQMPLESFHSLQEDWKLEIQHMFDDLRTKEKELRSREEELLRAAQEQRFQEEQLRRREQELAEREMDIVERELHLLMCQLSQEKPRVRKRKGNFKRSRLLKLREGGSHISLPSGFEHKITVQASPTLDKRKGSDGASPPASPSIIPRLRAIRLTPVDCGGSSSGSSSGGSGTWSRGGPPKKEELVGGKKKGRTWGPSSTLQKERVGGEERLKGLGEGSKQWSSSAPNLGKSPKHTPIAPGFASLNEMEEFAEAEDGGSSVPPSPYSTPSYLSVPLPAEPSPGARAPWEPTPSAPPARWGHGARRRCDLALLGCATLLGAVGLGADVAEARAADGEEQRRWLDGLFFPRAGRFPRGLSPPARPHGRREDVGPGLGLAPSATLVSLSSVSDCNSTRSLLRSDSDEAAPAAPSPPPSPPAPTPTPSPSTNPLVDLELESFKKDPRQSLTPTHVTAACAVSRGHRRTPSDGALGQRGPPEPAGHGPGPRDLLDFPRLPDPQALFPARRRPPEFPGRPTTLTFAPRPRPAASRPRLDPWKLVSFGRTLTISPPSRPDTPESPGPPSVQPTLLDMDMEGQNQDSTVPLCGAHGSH
Chain of UniProt P07948 (whole entry, looked up): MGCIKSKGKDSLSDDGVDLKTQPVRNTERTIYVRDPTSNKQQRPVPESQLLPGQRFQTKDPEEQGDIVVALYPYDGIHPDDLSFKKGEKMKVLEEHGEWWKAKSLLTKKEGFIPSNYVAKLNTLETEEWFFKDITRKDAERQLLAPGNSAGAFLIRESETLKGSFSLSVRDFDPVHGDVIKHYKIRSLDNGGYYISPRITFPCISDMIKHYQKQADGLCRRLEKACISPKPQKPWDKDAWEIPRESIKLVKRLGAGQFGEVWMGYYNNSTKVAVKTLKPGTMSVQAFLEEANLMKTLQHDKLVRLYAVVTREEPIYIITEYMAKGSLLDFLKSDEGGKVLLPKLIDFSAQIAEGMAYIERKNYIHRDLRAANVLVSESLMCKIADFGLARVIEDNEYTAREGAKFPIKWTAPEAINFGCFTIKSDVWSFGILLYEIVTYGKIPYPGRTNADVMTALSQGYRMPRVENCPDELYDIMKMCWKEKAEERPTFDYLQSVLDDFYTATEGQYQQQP
Chain of UniProt P50750 (whole entry, looked up): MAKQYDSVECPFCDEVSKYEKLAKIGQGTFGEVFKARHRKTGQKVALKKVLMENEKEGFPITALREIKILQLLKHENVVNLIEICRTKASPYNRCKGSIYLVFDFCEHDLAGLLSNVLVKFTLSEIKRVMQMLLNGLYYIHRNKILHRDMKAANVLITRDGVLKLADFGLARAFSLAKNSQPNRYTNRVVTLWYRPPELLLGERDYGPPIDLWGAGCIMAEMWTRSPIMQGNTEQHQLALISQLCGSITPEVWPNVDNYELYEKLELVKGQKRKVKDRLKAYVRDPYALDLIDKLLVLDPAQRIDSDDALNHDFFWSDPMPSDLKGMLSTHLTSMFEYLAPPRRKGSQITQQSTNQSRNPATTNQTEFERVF
Chain of UniProt Q96L34 (whole entry, looked up): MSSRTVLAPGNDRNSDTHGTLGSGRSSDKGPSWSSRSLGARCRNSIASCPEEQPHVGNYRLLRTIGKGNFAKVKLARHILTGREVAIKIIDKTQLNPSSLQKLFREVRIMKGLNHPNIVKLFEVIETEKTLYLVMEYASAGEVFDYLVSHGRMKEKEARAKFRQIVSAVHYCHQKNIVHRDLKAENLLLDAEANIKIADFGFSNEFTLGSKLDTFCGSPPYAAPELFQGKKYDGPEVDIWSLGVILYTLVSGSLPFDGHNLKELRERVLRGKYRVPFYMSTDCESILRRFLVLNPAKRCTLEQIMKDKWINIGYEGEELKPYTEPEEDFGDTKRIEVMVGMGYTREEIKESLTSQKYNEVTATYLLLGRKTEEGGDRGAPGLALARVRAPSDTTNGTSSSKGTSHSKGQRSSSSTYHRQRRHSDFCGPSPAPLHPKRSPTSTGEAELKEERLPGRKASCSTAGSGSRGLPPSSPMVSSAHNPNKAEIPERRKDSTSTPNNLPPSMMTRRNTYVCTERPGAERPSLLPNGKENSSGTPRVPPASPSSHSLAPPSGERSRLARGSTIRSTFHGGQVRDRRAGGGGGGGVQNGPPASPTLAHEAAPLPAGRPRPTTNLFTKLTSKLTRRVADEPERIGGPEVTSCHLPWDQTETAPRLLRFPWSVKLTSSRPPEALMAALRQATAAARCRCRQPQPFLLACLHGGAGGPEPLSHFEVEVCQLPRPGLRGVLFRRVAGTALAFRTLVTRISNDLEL
Chain of UniProt Q9NWZ3 (whole entry, looked up): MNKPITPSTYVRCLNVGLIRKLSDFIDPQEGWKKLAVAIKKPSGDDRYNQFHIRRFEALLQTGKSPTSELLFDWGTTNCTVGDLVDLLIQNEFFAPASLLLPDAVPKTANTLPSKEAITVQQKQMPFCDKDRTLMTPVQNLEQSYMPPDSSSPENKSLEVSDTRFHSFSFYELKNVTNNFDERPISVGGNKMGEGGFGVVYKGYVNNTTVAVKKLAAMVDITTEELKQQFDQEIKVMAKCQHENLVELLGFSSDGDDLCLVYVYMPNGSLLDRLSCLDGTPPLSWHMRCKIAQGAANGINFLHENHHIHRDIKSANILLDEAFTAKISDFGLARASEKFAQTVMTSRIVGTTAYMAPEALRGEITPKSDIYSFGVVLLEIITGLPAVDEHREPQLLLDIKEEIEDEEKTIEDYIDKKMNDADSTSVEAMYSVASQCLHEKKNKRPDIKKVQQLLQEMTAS
Chain of UniProt P48729 (whole entry, looked up): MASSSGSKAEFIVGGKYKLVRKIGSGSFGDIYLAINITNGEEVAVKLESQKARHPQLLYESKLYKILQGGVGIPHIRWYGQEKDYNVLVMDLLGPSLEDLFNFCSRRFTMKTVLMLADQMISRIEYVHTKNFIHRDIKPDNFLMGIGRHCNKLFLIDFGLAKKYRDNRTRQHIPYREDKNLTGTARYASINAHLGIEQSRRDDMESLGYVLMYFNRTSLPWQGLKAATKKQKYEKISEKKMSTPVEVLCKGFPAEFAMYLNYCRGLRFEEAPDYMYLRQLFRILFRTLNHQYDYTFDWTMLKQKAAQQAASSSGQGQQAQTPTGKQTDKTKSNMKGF

Series 1
SMILES: Cc1noc([C@H]2C[C@@H](c3ccc(C(F)(F)F)cc3)CN(C(=O)N3CCS(=O)(=O)C3)C2)n1
Method: competition with immobilised ligand
Concentration: 1 µM
target | read-out | remaining binding [%]
NEK3 (Homo sapiens, UniProt P51956) | cell-free assay | 73
STK32C (Homo sapiens, UniProt Q86UX6) | cell-free assay | 100
CSNK2A2 (Homo sapiens, UniProt P19784) | cell-free assay | 90
EGFR (Homo sapiens, UniProt P00533, T790M) | cell-free assay | 77
MARK4 (Homo sapiens, UniProt Q96L34) | cell-free assay | 84
MAP3K3 (Homo sapiens, UniProt Q99759) | cell-free assay | 84
PIK3CA (Homo sapiens, UniProt P42336, E542K) | cell-free assay | 71
CDKL1 (Homo sapiens, UniProt Q00532) | binding | 100
BMPR2 (Homo sapiens, UniProt Q13873) | cell-free assay | 100
STK36 (Homo sapiens, UniProt Q9NRP7) | cell-free assay | 100
WNK3 (Homo sapiens, UniProt Q9BYP7) | cell-free assay | 76
STK16 (Homo sapiens, UniProt O75716) | cell-free assay | 100
MET (Homo sapiens, UniProt P08581, Y1235D) | cell-free assay | 100
Ribosomal protein S6 kinase alpha-6, C-terminal kinase domain (RPS6KA6, Homo sapiens, UniProt Q9UK32) | cell-free assay | 100
SIK2 (Homo sapiens, UniProt Q9H0K1) | cell-free assay | 100
EGFR (Homo sapiens, UniProt P00533, del746-750) | cell-free assay | 67
DYRK1B (Homo sapiens, UniProt Q9Y463) | cell-free assay | 76

Series 2
Species: mouse
Matrix: microsomes or S9
Concentration: 2 µM
Time: 0.5 h
Compound | remaining compound
CC(C)(CCS(C)(=O)=O)CNc1cc(C#N)nc2ccccc12 | 30.3%
O=C1Cn2nnc(C(=O)c3ccccc3)c2C2(CCCCC2)O1 | 89.5%
Cc1ccc(S(=O)(=O)c2nc(S(C)(=O)=O)sc2NC2CCS(=O)(=O)C2)cc1 (stereo not shown) | 10.6%
O=C(C(Nc1ccc(N2CCCS2(=O)=O)cc1)c1ccccc1)N1CCCC1 (stereo not shown) | 44.2%
CC(C)C[C@@H]1N/C(=N/c2ccccc2)N(c2ccccc2)C1=O | 48.8%
Nc1ccc2oc(=O)c3c(c2c1)CC(C(F)(F)F)S3 (stereo not shown) | 38.2%
COCCNc1nc(N2CCCC2)nc2nccnc12 | 10.3%
CC(C)(C)c1cnnn1-c1ccc(C(=O)COC(=O)c2ccccc2)cc1 | < 1%
COc1ccc(Cn2c(-c3c(C)n[nH]c3-c3ccccc3)nc3ccccc32)cc1 | 1.52%

Series 3
Cell line: mouse MPNST tumor cells
Method: high-content nuclear imaging
Item: cell number
Concentration: 10 µM
Time: 12 h
Notes: mean of 2 replicates
Reference: plate mean
Reading: higher = more cells
Compound | nuclei count
Brc1c(NC2=NCCN2)ccc2nccnc12 | -0.336 z-score and 1.25 z-score
C[C@](N)(Cc1ccc(O)cc1)C(=O)O | 1.06 z-score
Cc1cc(CN2CCN(c3c(Br)cnc4nc(-c5ccc(N6CCN(C)CC6)cc5)[nH]c34)CC2)no1 | -2.68 z-score
O=C(NNc1ccccc1)c1ccncc1 | 3.42 z-score
O=c1n(CCCN2CCN(c3cccc(Cl)c3)CC2)nc2ccccn12 | 0.798 z-score and 0.445 z-score and 1.01 z-score
C[C@]12CC[C@@H]3c4ccc(O)cc4CC[C@H]3[C@@H]1CC[C@@H]2O | 0.00434 z-score
O=C(Nc1ccc(Cl)cc1)Nc1cccc(-c2cccc(N3CCCC3)n2)c1 | 3.48 z-score
C=CCSCC1Nc2cc(Cl)c(S(N)(=O)=O)cc2S(=O)(=O)N1 (stereo not shown) | 1.18 z-score
Clc1ccc(C(Cn2ccnc2)OCc2ccsc2Cl)c(Cl)c1 (stereo not shown) | 3.31 z-score
CNCCC(Oc1ccc(C(F)(F)F)cc1)c1ccccc1 (stereo not shown) | -4.6 z-score

Series 4
Compound: O=C(O)/C=C/c1cc(Br)c(Br)c(Br)c1Br
Read-out: enzyme activity
Action: inhibitor
Concentration: 0.5 µM
Reference: control
target | remaining activity
PRKG1 (Homo sapiens, UniProt Q13976) | 78.9%
LRRK2 (Homo sapiens, UniProt Q5S007) | 87.6%
AKT3 (Homo sapiens, UniProt Q9Y243) | 92.7%
BTK (Homo sapiens, UniProt Q06187) | 97.8%
NEK4 (Homo sapiens, UniProt P51957) | 54.6%
MAP4K2 (Homo sapiens, UniProt Q12851) | 89.3%
MAPK13 (Homo sapiens, UniProt O15264) | 98.5%
MAPK12 (Homo sapiens, UniProt P53778) | 103%
PRKCI (Homo sapiens, UniProt P41743) | 97.3%
MKNK2 (Homo sapiens, UniProt Q9HBH9) | 53.8%
LYN (Homo sapiens, UniProt P07948) | 99.3%
PLK2 (Homo sapiens, UniProt Q9NYY3) | 51.5%
IRAK4 (Homo sapiens, UniProt Q9NWZ3) | 86.6%
CSNK1A1 (Homo sapiens, UniProt P48729) | 79.3%
MAP2K6 (Homo sapiens, UniProt P52564) | 96.1%
EPHA5 (Homo sapiens, UniProt P54756) | 88.7%
WNK2 (Homo sapiens, UniProt Q9Y3S1) | 93%
CHEK1 (Homo sapiens, UniProt O14757) | 135%
Cyclin-dependent kinase 9, with cyclin T1 (CDK9, Homo sapiens, UniProt P50750) | 58.9%
CSNK2A1 (Homo sapiens, UniProt P68400) | 13.1%
MAP3K10 (Homo sapiens, UniProt Q02779) | 92.3%
KIT (Homo sapiens, UniProt P10721) | 89.2%

Repeated from above (series 4):
target | remaining activity
WNK2 (Homo sapiens, UniProt Q9Y3S1) | 93%
CHEK1 (Homo sapiens, UniProt O14757) | 135%
Cyclin-dependent kinase 9, with cyclin T1 (CDK9, Homo sapiens, UniProt P50750) | 58.9%
CSNK2A1 (Homo sapiens, UniProt P68400) | 13.1%
MAP3K10 (Homo sapiens, UniProt Q02779) | 92.3%
KIT (Homo sapiens, UniProt P10721) | 89.2%
